Published values collected from several papers.
Parts stem from different laboratories: compare values within a part only. Changes are numbered by the printed parent chain.

Sample 1
Target: CCNE2, cyclin fold, Cln2 fusion (human)
Technique: yeast growth competition, sequencing
Medium: yeast
Setting: strong parent motif
Reference: not given
Reading: higher = stronger binding
Parent: viral docking peptide; KGVKRKLFAEDSS; partner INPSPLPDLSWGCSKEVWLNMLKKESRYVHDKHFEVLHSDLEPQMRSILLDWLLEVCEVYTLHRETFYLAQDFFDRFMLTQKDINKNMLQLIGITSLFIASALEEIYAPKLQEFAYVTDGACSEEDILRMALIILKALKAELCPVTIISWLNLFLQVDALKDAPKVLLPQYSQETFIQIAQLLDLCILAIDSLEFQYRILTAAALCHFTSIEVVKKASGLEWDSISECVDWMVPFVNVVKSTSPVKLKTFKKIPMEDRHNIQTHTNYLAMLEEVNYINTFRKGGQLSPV
| Change | normalised enrichment score |
| --- | --- |
| KGVYRKLFAEDSS [K4Y] | 1.29 |
| KGVPRKLFAEDSS [K4P] | 1.83 |
| KGVLRKLFAEDSS [K4L] | 1.15 |
| KGVKRRLFAEDSS [K6R] | 7.55 |
| KGVKRKLFSEDSS [A9S] | 6.58 |
| KGVKRKFFAEDSS [L7F] | 1.32 |
| KGVKRKLPAEDSS [F8P] | 0.667 |
| KQVKRKLFAEDSS [G2Q] | 6.23 |
| KGVKRKLFATDSS [E10T] | 6.1 |
| KGVKRHLFAEDSS [K6H] | 2.24 |
| KGVKPKLFAEDSS [R5P] | 0.125 |
| KFVKRKLFAEDSS [G2F] | 5.53 |
| KGVKQKLFAEDSS [R5Q] | 0.833 |
| KVVKRKLFAEDSS [G2V] | 5.33 |
| KGVKRKVFAEDSS [L7V] | 0.834 |
| KGVKRKLFAEDTS [S12T] | 6.88 |
| KGVKRKLFAEDLS [S12L] | 6.79 |
| KGVKRLLFAEDSS [K6L] | 3.12 |

Sample 2
Target: CEBPA, bZIP domain (human)
Technique: DHFR protein complementation
Medium: yeast
Setting: single substitutions, most at no-binding floor
Reference: wild-type JUN-FOS pair
Reading: higher = stronger binding
Parent: JUN, bZIP domain (human); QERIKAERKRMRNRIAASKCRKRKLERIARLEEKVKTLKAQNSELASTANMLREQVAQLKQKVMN; partner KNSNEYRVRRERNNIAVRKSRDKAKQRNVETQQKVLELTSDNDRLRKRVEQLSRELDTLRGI
| Change | binding fitness [natural log] |
| --- | --- |
| V56W | -1.51 |
| E33V | -1.38 |
| I28K | -1.45 |
| L31D | -1.44 |
| I28N | -1.45 |
| K39R | -1.42 |
| T37I | -1.39 |
| I28Y | -1.47 |

Sample 3
Target: Histone acetyltransferase KAT6A, both winged helices, GST fusion (KAT6A, Homo sapiens, UniProt Q92794, residues 1-181)
Technique: protein binding microarray
Form: double-stranded DNA, one strand shown
Medium: in vitro
Tested at: not given
Setting: 8-mer, flanks averaged, mean of 2 arrays, mostly near background
Reference: not given
Reading: higher = stronger binding
Target sequence (chain): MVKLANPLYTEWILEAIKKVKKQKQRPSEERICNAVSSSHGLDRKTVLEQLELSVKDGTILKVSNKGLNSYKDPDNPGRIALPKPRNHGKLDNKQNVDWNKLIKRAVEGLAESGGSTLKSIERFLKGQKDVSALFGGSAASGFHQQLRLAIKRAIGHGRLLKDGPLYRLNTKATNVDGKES
| Strand | E-score |
| --- | --- |
| GCGCCTAC | 0.204 |
| CTTCTGAA | -0.0684 |
| GACCAGAA | -0.0846 |
| CGGACCAC | 0.083 |
| CACATTAG | -0.172 |
| ACTAATTA | -0.0972 |
| CACGGGAG | 0.119 |
| ACCGTATG | 0.154 |

Sample 4
Target: HLA class I histocompatibility antigen, A alpha chain, allele A*26:03 (Homo sapiens, UniProt P04439)
Read-out: peptide-MHC binding
Form: peptide
Tested at: concentration not given
| Molecule | binding |
| --- | --- |
| LEKWNLGII | inactive |
| ATADLELAY | inactive |
| VLYCVHQHI | inactive |

Sample 5
Target: UBE2D4 UBC core domain (UniProt Q9Y2X8)
Technique: yeast two-hybrid
Medium: yeast
Setting: mostly zero background
Reference: not given
Reading: higher = stronger interaction
B1: TRIM32 RING domain (UniProt Q13049); chain NLDALREVLECPICMESFTEEQLRPKLLHCGHTICRQCLEKLLASSINGVRCPFCSKITRITSLTQ
B2: RMND5B RING domain (UniProt Q96G75); chain MKCWYHSVFACPILRQQTSDSNPPIKLICGHVISRDALNKLINGGKLKCPYCPMEQNPADGK
B3: RFPL3 RING domain (UniProt O75679); chain MAALFQEASSCPVCSDYLEKPMSLECGCTVCLKCINSLQKEPHGEDLLCCCCSMVSQRNKIRP
B4: TRIM34 RING domain (UniProt Q9BYJ4); chain ILLNVQEEVTCPICLELLTEPLSLDCGHSLCRACITVSNKEAVTSMGGKSSCPVCGISYSFEHLQA
Target sequence (chain): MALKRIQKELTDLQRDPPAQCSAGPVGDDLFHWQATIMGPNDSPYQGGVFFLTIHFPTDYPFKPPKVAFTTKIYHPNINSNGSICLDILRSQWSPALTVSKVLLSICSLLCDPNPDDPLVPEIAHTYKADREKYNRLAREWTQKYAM
| Molecule | lacZ reporter activity |
| --- | --- |
| B1 (TRIM32 RING domain) | 0 |
| B2 (RMND5B RING domain) | 11100 |
| B3 (RFPL3 RING domain) | 0 |
| B4 (TRIM34 RING domain) | 0 |

For quick reference, copied from above (sample 4):
| Molecule | binding |
| --- | --- |
| ATADLELAY | inactive |
| VLYCVHQHI | inactive |
